Measured values pooled from the literature.
A part holds a random share of what one study measured. Substitutions count along the parent as printed.

Study 1 — method: universal PBM; form: double-stranded DNA, one strand shown; matrix: in vitro; concentration: 600 nM; direction: higher = stronger binding
Target: Sal-like protein 4, full length isoform A (SALL4, Homo sapiens, UniProt Q9UJQ4, residues 1-1053)
Chain of UniProt Q9UJQ4 (whole entry, looked up): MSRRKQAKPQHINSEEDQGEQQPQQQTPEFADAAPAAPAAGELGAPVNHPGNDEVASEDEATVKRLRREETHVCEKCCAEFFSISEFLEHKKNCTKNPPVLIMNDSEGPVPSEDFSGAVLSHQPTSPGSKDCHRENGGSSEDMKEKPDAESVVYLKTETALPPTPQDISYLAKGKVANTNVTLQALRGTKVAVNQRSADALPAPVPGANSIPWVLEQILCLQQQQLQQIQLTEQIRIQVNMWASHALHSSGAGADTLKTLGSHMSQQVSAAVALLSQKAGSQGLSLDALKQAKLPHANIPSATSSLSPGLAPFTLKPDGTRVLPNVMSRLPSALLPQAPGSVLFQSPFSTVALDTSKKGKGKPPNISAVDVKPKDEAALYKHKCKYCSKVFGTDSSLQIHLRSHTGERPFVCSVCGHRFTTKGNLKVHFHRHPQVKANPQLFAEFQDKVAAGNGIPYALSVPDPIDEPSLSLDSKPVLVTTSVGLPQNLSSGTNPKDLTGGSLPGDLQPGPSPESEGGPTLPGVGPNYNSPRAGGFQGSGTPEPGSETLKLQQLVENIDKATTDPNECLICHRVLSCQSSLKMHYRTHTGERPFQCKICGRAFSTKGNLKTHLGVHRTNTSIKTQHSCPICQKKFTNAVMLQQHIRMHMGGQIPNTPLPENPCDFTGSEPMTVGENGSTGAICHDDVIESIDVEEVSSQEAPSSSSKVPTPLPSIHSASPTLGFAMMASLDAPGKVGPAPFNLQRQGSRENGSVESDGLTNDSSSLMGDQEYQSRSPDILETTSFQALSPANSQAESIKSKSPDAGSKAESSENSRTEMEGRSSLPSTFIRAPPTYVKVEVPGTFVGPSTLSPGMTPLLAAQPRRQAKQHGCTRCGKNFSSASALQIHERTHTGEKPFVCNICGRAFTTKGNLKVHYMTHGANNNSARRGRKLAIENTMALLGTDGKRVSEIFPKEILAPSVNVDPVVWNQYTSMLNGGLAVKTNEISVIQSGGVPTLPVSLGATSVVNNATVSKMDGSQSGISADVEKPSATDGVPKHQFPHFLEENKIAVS
Notes: 8-mer, flanks averaged, mean of replicates
The E-score of `AGAACTCT` is reported as -0.0935.
For `CACGAGGC`, the E-score was -0.0694.
For `CAATTCGG`, the E-score was -0.0415.
`GGCCCTGA` gave an E-score of -0.194.
`AGTATAAA` has an E-score of 0.317.
`TGCCGGAA` has an E-score of -0.0461.
The E-score of `CGGCCAAA` is reported as -0.087.
`GTAACTTA` has an E-score of 0.176.
For `ATGTCCCG`, the E-score was -0.158.
With `GGTAGTAC` the E-score was -0.0467.
`GAGCTGCA` has an E-score of -0.2.
The E-score of `GCCCACGA` is reported as -0.284.
For `ACCGGGTG`, the E-score was -0.315.
The E-score of `CTCGTCAC` is reported as 0.0329.
For `CCCGAGAA`, the E-score was -0.138.
With `ACTTCGCC` the E-score was -0.0875.

Study 2 — target: CCNE1, cyclin fold, Cln2 fusion (human); method: yeast growth competition, sequencing; matrix: yeast; notes: strong parent motif; reference: not given; direction: higher = stronger binding
Parent: RBL2 docking peptide (human); STTRRRLFVENDS; partner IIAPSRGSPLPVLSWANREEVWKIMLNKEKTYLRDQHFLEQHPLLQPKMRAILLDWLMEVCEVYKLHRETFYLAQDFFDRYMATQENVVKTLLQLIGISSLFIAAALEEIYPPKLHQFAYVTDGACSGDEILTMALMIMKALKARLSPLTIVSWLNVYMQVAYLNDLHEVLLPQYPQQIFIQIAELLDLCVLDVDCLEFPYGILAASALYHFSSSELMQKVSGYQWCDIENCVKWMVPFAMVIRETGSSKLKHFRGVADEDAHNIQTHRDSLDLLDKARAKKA
For `T2M`, “normalised enrichment score” read 5.66.
`V9T` — result for “normalised enrichment score”: 7.07.
Under “normalised enrichment score”, `R4L` is recorded as 0.365.
`N11A` — result for “normalised enrichment score”: 5.14.
For `F8L`, “normalised enrichment score” read 0.583.
`D12W`: “normalised enrichment score” 3.91.
`D12H` — result for “normalised enrichment score”: 3.94.
`L7V` — result for “normalised enrichment score”: 0.0681.
Under “normalised enrichment score”, `T3G` is recorded as 4.36.
Under “normalised enrichment score”, `E10F` is recorded as 2.83.
For `E10W`, “normalised enrichment score” read 1.42.
`E10S`: “normalised enrichment score” 3.97.
For `T2N`, “normalised enrichment score” read 6.32.

Study 3 — method: protein binding microarray; form: double-stranded DNA, one strand shown; matrix: in vitro; concentration: not given; reference: not given; direction: higher = stronger binding
Target: Histone acetyltransferase KAT6A, winged helix 1, GST fusion (KAT6A, Homo sapiens, UniProt Q92794, residues 1-85)
Notes: 8-mer, flanks averaged, mean of 2 arrays, mostly near background
Target sequence (chain): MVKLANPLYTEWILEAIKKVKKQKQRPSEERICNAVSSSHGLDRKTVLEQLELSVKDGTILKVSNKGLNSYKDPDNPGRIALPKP
With `CTTGCGAA` the E-score was 0.162.
`AAGTTTTG` gave an E-score of -0.137.
With `GGCGAGCC` the E-score was 0.0686.
The E-score of `TCAACACA` is reported as -0.17.
`AAACGTAT` has an E-score of 0.0123.
For `AGGCCTAT`, the E-score was -0.226.
`CAAGGGAA` has an E-score of -0.191.
The E-score of `AGGGTGTA` is reported as -0.208.
For `CGCGCTCC`, the E-score was 0.396.
`CGGACGTC` has an E-score of 0.21.
With `ATAAATCC` the E-score was -0.03.
For `CAATGAGC`, the E-score was -0.11.
With `GTATTCTA` the E-score was -0.0557.
`CTAACGAG` has an E-score of -0.125.
The E-score of `ACTGCATA` is reported as -0.255.
The E-score of `GAAGCGTA` is reported as 0.152.

Further values, each from its own experiment
`PhoQ, residues 284 288 289 292 302 303 QWQEDG` has a fold induction of 1.45 (PhoP, residues 12 14 15 18 19 HHYTI (Escherichia coli, UniProt P23836); Sort-seq, item: YFP reporter; E. coli; PhoQ-PhoP variant library, together with: 10 µM Mg2+; reference: high Mg2+ state, higher = stronger signaling).
